Experimental data pooled from the literature.
Every numbered part comes from another study and shows a few of its results, in no order.
Sequence of UniProt P41743 (whole entry, looked up): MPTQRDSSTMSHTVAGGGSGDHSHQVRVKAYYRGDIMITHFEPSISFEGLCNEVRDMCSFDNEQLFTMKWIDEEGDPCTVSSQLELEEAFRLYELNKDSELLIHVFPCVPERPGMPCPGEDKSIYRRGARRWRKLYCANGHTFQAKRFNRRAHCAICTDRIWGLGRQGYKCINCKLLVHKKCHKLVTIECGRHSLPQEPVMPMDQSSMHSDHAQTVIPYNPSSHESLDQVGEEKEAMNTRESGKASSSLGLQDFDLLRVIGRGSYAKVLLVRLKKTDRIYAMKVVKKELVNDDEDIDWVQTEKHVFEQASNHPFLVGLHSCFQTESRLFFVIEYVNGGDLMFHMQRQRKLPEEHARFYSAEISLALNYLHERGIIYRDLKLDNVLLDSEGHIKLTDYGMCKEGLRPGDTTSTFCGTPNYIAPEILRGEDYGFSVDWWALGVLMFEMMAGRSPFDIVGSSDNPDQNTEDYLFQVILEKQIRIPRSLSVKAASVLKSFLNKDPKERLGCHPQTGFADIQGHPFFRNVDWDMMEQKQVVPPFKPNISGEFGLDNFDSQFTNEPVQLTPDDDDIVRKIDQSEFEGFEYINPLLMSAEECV
Sequence of UniProt P10721 (whole entry, unmodified, looked up): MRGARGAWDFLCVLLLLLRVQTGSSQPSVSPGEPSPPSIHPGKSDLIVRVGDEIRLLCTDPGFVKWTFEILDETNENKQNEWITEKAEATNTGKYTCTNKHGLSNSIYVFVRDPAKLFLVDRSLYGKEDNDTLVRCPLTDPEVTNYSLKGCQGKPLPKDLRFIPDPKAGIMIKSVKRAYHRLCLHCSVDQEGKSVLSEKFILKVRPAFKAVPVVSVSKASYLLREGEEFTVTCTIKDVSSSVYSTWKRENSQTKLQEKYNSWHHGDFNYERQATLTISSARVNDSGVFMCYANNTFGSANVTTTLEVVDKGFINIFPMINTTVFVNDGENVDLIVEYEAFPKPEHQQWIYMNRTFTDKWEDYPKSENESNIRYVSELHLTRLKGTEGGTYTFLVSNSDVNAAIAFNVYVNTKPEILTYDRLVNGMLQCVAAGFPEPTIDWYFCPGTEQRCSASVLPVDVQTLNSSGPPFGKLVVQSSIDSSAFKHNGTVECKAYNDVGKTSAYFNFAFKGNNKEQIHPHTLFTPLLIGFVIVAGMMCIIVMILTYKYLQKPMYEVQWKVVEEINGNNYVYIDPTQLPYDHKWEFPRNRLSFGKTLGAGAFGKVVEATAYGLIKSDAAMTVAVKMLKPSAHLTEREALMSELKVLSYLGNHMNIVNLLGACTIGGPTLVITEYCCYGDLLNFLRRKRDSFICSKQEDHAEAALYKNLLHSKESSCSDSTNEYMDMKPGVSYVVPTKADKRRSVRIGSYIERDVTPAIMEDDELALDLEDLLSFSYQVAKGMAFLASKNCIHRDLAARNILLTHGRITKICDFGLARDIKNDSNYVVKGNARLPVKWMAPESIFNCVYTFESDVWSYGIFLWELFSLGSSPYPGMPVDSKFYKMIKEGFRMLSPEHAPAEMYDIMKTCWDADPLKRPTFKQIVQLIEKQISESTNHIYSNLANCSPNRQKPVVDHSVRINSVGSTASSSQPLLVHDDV
Sequence of UniProt Q16288 (whole entry, looked up): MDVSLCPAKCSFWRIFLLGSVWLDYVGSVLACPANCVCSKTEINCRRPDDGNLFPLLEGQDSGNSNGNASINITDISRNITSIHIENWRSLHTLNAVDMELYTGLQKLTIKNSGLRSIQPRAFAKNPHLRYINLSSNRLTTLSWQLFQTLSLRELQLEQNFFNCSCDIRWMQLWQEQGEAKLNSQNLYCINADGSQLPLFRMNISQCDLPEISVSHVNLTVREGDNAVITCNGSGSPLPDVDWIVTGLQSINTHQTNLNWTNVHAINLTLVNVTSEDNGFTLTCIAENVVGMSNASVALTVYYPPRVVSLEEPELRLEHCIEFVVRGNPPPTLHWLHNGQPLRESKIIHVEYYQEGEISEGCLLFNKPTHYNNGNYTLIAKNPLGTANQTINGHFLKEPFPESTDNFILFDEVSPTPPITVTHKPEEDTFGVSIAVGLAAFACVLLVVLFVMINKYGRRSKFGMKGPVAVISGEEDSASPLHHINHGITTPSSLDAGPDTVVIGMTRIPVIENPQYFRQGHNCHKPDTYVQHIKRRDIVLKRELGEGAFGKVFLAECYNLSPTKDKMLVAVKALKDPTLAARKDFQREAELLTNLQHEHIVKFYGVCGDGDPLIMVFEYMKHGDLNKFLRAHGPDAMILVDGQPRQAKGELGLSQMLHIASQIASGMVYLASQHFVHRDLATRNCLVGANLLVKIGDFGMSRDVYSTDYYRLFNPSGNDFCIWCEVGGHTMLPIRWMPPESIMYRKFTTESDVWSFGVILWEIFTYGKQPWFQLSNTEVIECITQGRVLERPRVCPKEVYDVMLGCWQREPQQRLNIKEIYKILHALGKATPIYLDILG
Sequence of UniProt P37023 (whole entry, looked up): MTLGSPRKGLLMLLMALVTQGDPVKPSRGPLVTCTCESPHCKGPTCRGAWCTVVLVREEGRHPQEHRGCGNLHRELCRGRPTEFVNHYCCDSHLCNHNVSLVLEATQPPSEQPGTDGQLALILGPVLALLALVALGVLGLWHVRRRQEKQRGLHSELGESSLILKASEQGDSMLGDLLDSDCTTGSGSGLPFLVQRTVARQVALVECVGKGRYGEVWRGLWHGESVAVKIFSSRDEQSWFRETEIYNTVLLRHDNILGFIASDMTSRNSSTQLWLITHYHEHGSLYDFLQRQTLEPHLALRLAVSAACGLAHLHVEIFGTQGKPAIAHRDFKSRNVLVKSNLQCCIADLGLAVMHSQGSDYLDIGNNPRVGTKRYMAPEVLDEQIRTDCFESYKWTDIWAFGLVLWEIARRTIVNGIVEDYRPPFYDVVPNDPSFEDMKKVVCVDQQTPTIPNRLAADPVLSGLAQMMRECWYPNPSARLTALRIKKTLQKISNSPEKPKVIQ
Sequence of UniProt O14757 (whole entry, looked up): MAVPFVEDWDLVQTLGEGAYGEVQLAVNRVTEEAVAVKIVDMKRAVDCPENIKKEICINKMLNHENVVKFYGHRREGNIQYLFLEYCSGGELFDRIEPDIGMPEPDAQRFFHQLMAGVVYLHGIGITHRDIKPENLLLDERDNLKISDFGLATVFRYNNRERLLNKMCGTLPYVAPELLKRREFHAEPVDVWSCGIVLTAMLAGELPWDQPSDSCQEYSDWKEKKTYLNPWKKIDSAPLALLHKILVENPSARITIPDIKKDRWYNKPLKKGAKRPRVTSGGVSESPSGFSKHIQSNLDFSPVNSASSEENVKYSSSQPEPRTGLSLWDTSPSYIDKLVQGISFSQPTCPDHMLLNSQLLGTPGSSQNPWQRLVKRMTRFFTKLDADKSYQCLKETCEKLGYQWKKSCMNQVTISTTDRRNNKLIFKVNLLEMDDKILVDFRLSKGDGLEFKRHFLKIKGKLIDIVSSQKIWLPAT
Sequence of UniProt Q9UM73 (whole entry, unmodified, looked up): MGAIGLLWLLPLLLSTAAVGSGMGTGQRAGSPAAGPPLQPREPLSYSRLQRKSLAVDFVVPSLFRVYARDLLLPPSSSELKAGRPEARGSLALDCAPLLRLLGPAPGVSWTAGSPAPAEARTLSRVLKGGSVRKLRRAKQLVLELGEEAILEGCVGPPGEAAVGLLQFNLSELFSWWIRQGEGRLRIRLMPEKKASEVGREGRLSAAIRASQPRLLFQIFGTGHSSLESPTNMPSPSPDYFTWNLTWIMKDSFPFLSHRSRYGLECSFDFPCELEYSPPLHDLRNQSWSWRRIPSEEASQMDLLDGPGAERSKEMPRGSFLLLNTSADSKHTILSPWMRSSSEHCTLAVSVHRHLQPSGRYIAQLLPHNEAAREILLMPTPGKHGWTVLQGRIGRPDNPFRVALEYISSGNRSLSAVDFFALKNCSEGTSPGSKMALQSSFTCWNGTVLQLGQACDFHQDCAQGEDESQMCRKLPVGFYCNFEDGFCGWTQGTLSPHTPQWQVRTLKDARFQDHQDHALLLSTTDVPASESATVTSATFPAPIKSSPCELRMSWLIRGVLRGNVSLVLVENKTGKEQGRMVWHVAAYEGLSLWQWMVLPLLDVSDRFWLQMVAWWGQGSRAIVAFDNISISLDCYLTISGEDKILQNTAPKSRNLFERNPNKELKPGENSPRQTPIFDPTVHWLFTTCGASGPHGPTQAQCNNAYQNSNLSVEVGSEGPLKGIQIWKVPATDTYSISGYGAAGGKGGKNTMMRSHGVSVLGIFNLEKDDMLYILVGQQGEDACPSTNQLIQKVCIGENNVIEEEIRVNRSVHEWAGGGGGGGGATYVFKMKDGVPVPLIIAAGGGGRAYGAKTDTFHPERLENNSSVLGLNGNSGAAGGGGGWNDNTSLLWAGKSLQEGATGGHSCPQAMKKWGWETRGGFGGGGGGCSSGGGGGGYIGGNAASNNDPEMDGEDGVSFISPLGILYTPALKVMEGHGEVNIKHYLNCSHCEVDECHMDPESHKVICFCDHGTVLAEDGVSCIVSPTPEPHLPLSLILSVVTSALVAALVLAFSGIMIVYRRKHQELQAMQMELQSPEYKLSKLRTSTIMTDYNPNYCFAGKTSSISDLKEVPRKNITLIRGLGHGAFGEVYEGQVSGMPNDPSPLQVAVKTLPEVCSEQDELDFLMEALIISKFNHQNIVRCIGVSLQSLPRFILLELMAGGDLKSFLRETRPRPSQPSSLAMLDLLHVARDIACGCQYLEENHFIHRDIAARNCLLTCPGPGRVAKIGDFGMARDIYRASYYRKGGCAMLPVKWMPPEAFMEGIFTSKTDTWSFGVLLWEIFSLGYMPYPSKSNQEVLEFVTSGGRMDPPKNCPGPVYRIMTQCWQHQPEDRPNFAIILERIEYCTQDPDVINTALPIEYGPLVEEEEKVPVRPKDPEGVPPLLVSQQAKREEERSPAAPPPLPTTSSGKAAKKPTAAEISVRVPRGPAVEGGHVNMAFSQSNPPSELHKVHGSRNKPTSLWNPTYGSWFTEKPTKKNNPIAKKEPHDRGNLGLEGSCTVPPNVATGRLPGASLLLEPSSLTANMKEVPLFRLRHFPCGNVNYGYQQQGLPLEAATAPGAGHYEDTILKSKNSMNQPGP

Set 1
Compound: CCCC(=O)Oc1ccc2[nH]c(C(=O)c3cc4ccccc4[nH]3)cc2c1
Observed: enzyme activity
Action: inhibitor
Concentration: 0.5 µM
Baseline: control
target | remaining activity [%]
BTK (Homo sapiens, UniProt Q06187) | 88.2
MAP2K6 (Homo sapiens, UniProt P52564) | 97.3
PRKG1 (Homo sapiens, UniProt Q13976) | 95.1
MAP3K10 (Homo sapiens, UniProt Q02779) | 87.7
MAPK13 (Homo sapiens, UniProt O15264) | 103
PLK2 (Homo sapiens, UniProt Q9NYY3) | 101
KIT (Homo sapiens, UniProt P10721) | 82.4
CSNK2A1 (Homo sapiens, UniProt P68400) | 99.8
IRAK4 (Homo sapiens, UniProt Q9NWZ3) | 82.7
EPHA5 (Homo sapiens, UniProt P54756) | 97.7
AKT3 (Homo sapiens, UniProt Q9Y243) | 101
NEK4 (Homo sapiens, UniProt P51957) | 96.3
WNK2 (Homo sapiens, UniProt Q9Y3S1) | 113
MKNK2 (Homo sapiens, UniProt Q9HBH9) | 105
CSNK1A1 (Homo sapiens, UniProt P48729) | 94
STK38 (Homo sapiens, UniProt Q15208) | 96.9
MAP4K2 (Homo sapiens, UniProt Q12851) | 95.3
PRKCD (Homo sapiens, UniProt Q05655) | 88.8
LRRK2 (Homo sapiens, UniProt Q5S007) | 101
LYN (Homo sapiens, UniProt P07948) | 98.7
MAPK12 (Homo sapiens, UniProt P53778) | 93.7
PRKCI (Homo sapiens, UniProt P41743) | 99.2
Cyclin-dependent kinase 9, with cyclin T1 (CDK9, Homo sapiens, UniProt P50750) | 105
CHEK1 (Homo sapiens, UniProt O14757) | 89.7

Set 2
Target: Bromodomain-containing protein 4, BD1 (BRD4, Homo sapiens, UniProt O60885)
Observed: acetyl-histone H4 peptide binding
Technique: AlphaScreen displacement
Concentration: 50 µM
Structure (SMILES) | inhibition [%]
Nc1nc(Nc2ccc(F)cc2)sc1C(=O)c1ccc(Cl)cc1 | 65.5
CN(C)CC1CCn2c(c(C3=C(c4cn(C)c5ccccc45)C(=O)NC3=O)c3ccccc32)C1.Cl (stereo not drawn) | 89.7
Cl.Cn1cc(C2=C(c3c4n(c5ccccc35)CCC(CN)C4)C(=O)NC2=O)c2ccccc21 (stereo not drawn) | 93.8
CCCCOC(=O)COC(=O)c1cc(=O)[nH]c2ccccc12 | 2.05
O=C1NC(=O)c2c1c1c3ccccc3[nH]c1c1[nH]c3cc(Br)ccc3c21 | 47.7
CN1CCN(Cc2c(-c3ccc(F)cc3)[nH]c3ncccc23)CC1 | 35
O=c1c2ccccc2[nH]c(=S)n1CCN1CCC(=C(c2ccc(F)cc2)c2ccc(F)cc2)CC1 | 42.9
NC1=N/C(=C2/CCNC(=O)c3[nH]c(Br)cc32)C(=O)N1 | 7.5
O=c1n(Cc2ccccc2)sc(=S)n1Cc1ccccc1 | -16.6
CC(Nc1nc(-c2ccc(F)c(Cl)c2)cnc1N)c1ccccc1 (stereo not drawn) | 42.4
COc1cc2c(Nc3ccc(Br)cc3F)ncnc2cc1OCC1CCN(C)CC1 | 2.35
Nc1nc(Nc2ccc(F)cc2)sc1C(=O)c1ccc(F)cc1 | 41.6

Set 3
Host: mouse
Sample: microsomes or S9
Concentration: 2 µM
Time: 0.5 h
Structure (SMILES) | remaining compound [%]
CCCN(CCC)C(=O)c1cccc(C(=O)NN(Cc2ccc(Br)cc2)C(=O)CN[C@H](C(=O)NCc2cccc(OC)c2)C(C)C)c1 | 0
OC1CCC(Nc2nc(-c3ccncc3)nc3c2CCC3)CC1 (stereo not drawn) | 38.4
O=C(COc1ccc2c3ccccc3n(C(=O)c3ccc(Br)cc3)c2c1)N1CCOCC1 | 9
COc1cc2c(c(OC)c1)C1(CC(C)(C)N2)CC(C)(C)Nc2cc(OC)cc(OC)c21 | 59.3
COc1ccc(NC(=O)c2cc3cc(C)ccc3n2C)c(OC)c1 | 22.3
COC[C@@H]1[C@H](NC(=O)CCN2CCCO2)[C@@H]2CCO[C@H]12 | 69.5
O=C(COc1ncccn1)NCCNc1cc(-n2cccn2)ncn1 | 18.9
OC1(c2ccc(Br)cc2)CCNCC1 | 23
CCOc1ccc(OCC)c(NC(=O)c2cc3c(Cl)ccc4c3n2CCO4)c1 | 55.1
COc1ccc(C2=NOC(c3ccc(-c4nnn[nH]4)cc3)C2)cc1 (stereo not drawn) | 72.5
Cc1c(C)c(C)c(S(=O)(=O)N(C)c2cnccn2)c(C)c1C | 1.17
O=C1CCCC2=C1C(c1ccco1)Nc1ccc3ccccc3c12 (stereo not drawn) | 11.7
Nc1n[nH]c2nc(N3CCCC3)c3c(c12)CCN(C1CCCCC1)C3 | 56
CC(NC(=O)Nc1ccc(F)cc1Br)c1cn[nH]c1 (stereo not drawn) | 87.3

Set 4
Compound: CCC(=N\O)/C(C)=C/c1ccc(F)cc1
Concentration: 1 µM
target | assay | remaining binding
PRKCQ (Homo sapiens, UniProt Q04759) | cell-free assay, competition with immobilised ligand | 80%
PLK4 (Homo sapiens, UniProt O00444) | cell-free assay, competition with immobilised ligand | 75%
PRKAA1 (Homo sapiens, UniProt Q13131) | cell-free assay, competition with immobilised ligand | 99%
ALK (Homo sapiens, UniProt Q9UM73, L1196M) | cell-free assay, competition with immobilised ligand | 71%
Tyrosine-protein kinase ABL1, phosphorylated (ABL1, Homo sapiens, UniProt P00519, E255K) | cell-free assay, competition with immobilised ligand | 52%
ACVRL1 (Homo sapiens, UniProt P37023) | cell-free assay, competition with immobilised ligand | 76%
PIK3CA (Homo sapiens, UniProt P42336, I800L) | cell-free assay, competition with immobilised ligand | 100%
FRK (Homo sapiens, UniProt P42685) | cell-free assay, competition with immobilised ligand | 100%
CDKL3 (Homo sapiens, UniProt Q8IVW4) | cell-free assay, competition with immobilised ligand | 80%
CAMK2G (Homo sapiens, UniProt Q13555) | cell-free assay, competition with immobilised ligand | 100%
FLT3 (Homo sapiens, UniProt P36888, F691L/ITD) | cell-free assay, competition with immobilised ligand | 67%
PRKCI (Homo sapiens, UniProt P41743) | cell-free assay, competition with immobilised ligand | 74%
EPHA4 (Homo sapiens, UniProt P54764) | cell-free assay, competition with immobilised ligand | 74%
MARK1 (Homo sapiens, UniProt Q9P0L2) | cell-free assay, competition with immobilised ligand | 100%
PIP5K1C (Homo sapiens, UniProt O60331) | cell-free assay, competition with immobilised ligand | 100%
MAP3K20 (Homo sapiens, UniProt Q9NYL2) | cell-free assay, competition with immobilised ligand | 84%
ZAP70 (Homo sapiens, UniProt P43403) | cell-free assay, competition with immobilised ligand | 96%
GRK1 (Homo sapiens, UniProt Q15835) | cell-free assay, competition with immobilised ligand | 79%
NTRK3 (Homo sapiens, UniProt Q16288) | cell-free assay, competition with immobilised ligand | 88%
CDC42BPG (Homo sapiens, UniProt Q6DT37) | competition binding | 73%
Tyrosine-protein kinase ABL1, phosphorylated (ABL1, Homo sapiens, UniProt P00519, H396P) | cell-free assay, competition with immobilised ligand | 72%
STK32B (Homo sapiens, UniProt Q9NY57) | cell-free assay, competition with immobilised ligand | 100%
MAPK1 (Homo sapiens, UniProt P28482) | cell-free assay, competition with immobilised ligand | 71%
KIT (Homo sapiens, UniProt P10721, V559D) | cell-free assay, competition with immobilised ligand | 100%
TRPM6 (Homo sapiens, UniProt Q9BX84) | cell-free assay, competition with immobilised ligand | 64%

Excerpt of the above (set 2):
Structure (SMILES) | inhibition [%]
CN(C)CC1CCn2c(c(C3=C(c4cn(C)c5ccccc45)C(=O)NC3=O)c3ccccc32)C1.Cl (stereo not drawn) | 89.7
CC(Nc1nc(-c2ccc(F)c(Cl)c2)cnc1N)c1ccccc1 (stereo not drawn) | 42.4
O=C1NC(=O)c2c1c1c3ccccc3[nH]c1c1[nH]c3cc(Br)ccc3c21 | 47.7
Nc1nc(Nc2ccc(F)cc2)sc1C(=O)c1ccc(F)cc1 | 41.6
Cl.Cn1cc(C2=C(c3c4n(c5ccccc35)CCC(CN)C4)C(=O)NC2=O)c2ccccc21 (stereo not drawn) | 93.8
NC1=N/C(=C2/CCNC(=O)c3[nH]c(Br)cc32)C(=O)N1 | 7.5
O=c1c2ccccc2[nH]c(=S)n1CCN1CCC(=C(c2ccc(F)cc2)c2ccc(F)cc2)CC1 | 42.9
O=c1n(Cc2ccccc2)sc(=S)n1Cc1ccccc1 | -16.6
